{"data": "Measurements gathered from unrelated publications", "target": "Testis-specific serine/threonine-protein kinase 1 (TSSK1B, Homo sapiens, UniProt Q9BXA7)", "Residues used in one study (Q9BXA7 1-367)": "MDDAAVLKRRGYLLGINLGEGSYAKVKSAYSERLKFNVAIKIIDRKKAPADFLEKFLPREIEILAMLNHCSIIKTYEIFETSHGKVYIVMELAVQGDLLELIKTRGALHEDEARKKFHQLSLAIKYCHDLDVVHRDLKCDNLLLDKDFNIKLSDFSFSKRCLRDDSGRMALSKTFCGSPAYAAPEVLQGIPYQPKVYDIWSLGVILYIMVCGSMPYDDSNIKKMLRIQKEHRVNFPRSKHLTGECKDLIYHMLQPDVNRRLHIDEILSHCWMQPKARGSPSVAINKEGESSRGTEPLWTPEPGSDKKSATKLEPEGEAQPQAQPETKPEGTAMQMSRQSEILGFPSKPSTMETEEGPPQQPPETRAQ", "note": "Protocols differ between the studies behind these lines."}
{"Structure (SMILES)": "O=C(O)c1ccccc1/C=N/Nc1nc(-c2ccccc2Cl)cs1", "test": "enzyme activity, inhibitor", "setting": "1 µM", "endpoint": "inhibition", "result": "-7.39%"}
{"Structure (SMILES)": "CC(C)[C@H]1NC(=O)C[C@H]2/C=C/CCSSC[C@@H](NC1=O)C(=O)N[C@H](Cc1cccc3ccccc13)C(=O)NCC(=O)O2", "test": "enzyme activity, inhibitor", "setting": "10 µM", "endpoint": "inhibition", "result": "3.7%"}
{"Structure (SMILES)": "CN(/N=C/c1ccccc1C(=O)O)c1nc(-c2ccccc2Cl)cs1", "test": "enzyme activity, inhibitor", "setting": "1 µM", "endpoint": "inhibition", "result": "-4.08%"}
{"Structure (SMILES)": "C[C@H](NCc1ccc(-c2ccc(C(F)(F)F)cc2)cc1)C(N)=O", "test": "cell-free assay, competition with immobilised ligand", "setting": "1 µM", "endpoint": "inhibition", "result": "0%"}
{"Structure (SMILES)": "CCOC(=O)[C@@H]1Cc2c(cc([N+](=O)[O-])cc2[N+](=O)[O-])[C@H](O)[C@]12C(=O)Nc1ccc(Br)cc12", "test": "binding, competition with immobilised ligand", "setting": "0.1 µM", "endpoint": "remaining binding", "result": "82%"}
{"Structure (SMILES)": "O=C1NC(=O)c2c1c1cc(F)c[n+]3c1c1c2c2cc(O)ccc2[n]1[Ru-4]312([N]=C=S)[S+]3CC[S+]1CC[S+]2CC3 (centres unmarked)", "test": "enzyme activity", "setting": "100 nM, human enzyme, with: 10 µM ATP", "scale": "reference: untreated", "endpoint": "remaining activity", "result": "11%"}
{"Structure (SMILES)": "Nc1ccc(/C=C/C(=O)N2CCc3c(oc4c(-c5ccc(F)cc5)cc(-c5ccc(C(=O)N6CCC(F)(F)CC6)cn5)cc34)C2)cn1", "test": "binding, competition with immobilised ligand", "setting": "1 µM", "endpoint": "remaining binding", "result": "100%"}
{"Structure (SMILES)": "CS(C)(=O)=Nc1ccc(-c2ccc(-c3nc4cc(O[C@@H]5CO[C@H]6[C@@H]5OC[C@H]6O)[nH]c4cc3F)cc2)cc1", "test": "enzyme activity, inhibitor", "setting": "10 µM", "endpoint": "inhibition", "result": "9%"}
{"note": "For quick reference, copied from above:"}
{"Structure (SMILES)": "CCOC(=O)[C@@H]1Cc2c(cc([N+](=O)[O-])cc2[N+](=O)[O-])[C@H](O)[C@]12C(=O)Nc1ccc(Br)cc12", "test": "binding, competition with immobilised ligand", "setting": "0.1 µM", "endpoint": "remaining binding", "result": "82%"}
